Assay results gathered from unrelated publications.
Parts stem from different laboratories: compare values within a part only. Substitutions count along the parent as printed.

Set 1
Target: Sal-like protein 4, full length isoform B (SALL4, Homo sapiens, UniProt Q9UJQ4-2, residues 1-616)
Method: universal PBM
Molecule type: double-stranded DNA, one strand shown
Matrix: in vitro
Tested at: not given
Setting: 8-mer, flanks averaged, mean of replicates
Direction: higher = stronger binding
Strand	E-score
GCAGTACA	-0.151
CATAGACC	0.0115
AGCGTTAC	-0.0438
GCGCCACA	-0.153
AGCACTGA	-0.0382
CGCATTCA	0.148
GACCGTCA	-0.0583
TACACGGA	0.163
CTTGTATC	0.126
CTGGGATA	0.0958
CGTTGTAA	0.156
CATGGGTC	-0.228
CAGCGACG	-0.241
CTTATGTC	0.0534
CAGCGAGC	-0.0466
GACTGCTA	-0.0833
CGCGGCGA	-0.321
GACGATTA	0.122
ACGCGGCT	-0.164
CATCCTCA	-0.0934
GAGAGGGC	-0.367
TATGCAAA	0.144
ATCCCGAC	-0.145
CACGCATC	-0.0541

Set 2
Target: RING finger protein unkempt homolog, zinc fingers 1-6, GST-SBP tag (UNK, Homo sapiens, UniProt Q9C0B0, residues 30-357)
Sequence of UniProt Q9C0B0 (30-357, looked up): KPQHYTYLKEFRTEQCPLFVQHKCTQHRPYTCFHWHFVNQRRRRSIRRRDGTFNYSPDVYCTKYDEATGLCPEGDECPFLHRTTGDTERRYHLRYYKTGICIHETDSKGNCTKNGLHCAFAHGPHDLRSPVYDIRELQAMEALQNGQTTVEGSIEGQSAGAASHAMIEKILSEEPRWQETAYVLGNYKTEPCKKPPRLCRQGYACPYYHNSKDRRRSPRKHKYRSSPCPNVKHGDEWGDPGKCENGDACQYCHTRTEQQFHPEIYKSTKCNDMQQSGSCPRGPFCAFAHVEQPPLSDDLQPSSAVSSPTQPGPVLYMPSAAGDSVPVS
Method: RNA Bind-n-Seq
Molecule type: RNA
Matrix: in vitro
Tested at: not given
Setting: RNA with constant flanks, human-mouse chimeric sites, ends assumed
Relative to: input RNA pool
Direction: higher = stronger binding
Strand	bound/input enrichment
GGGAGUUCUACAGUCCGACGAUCAAAGAGUGGAUAGAGUGUGCACACGGGAUCGGUGGGACCCGGGCGAAAAAGGAGUGCAAGAUAGAGUUCGAUGACUUCGAAGAGUGCUUGCUUCGGUAGAAAACGAUGAGACGUGCACAUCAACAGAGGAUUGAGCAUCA	0.37 ratio
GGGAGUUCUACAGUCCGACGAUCAACGUGGAGUUGAGUUCCUUGGCCCGGCUUCCCAGCUUAAAUAAACUCCGGAAGUUGGAGCUUAGUGACAAUAUAAUUUCUGGAGGCUUGGAAGUCCUGGCAGAGAAAUGUCCAAAUCUUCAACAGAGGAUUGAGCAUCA	0.138 ratio
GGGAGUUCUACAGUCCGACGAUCAGAGAAAUGAGAAAGAAUCUUACACAAGAAGAGAUGCAAAGAAUGUCUACUAGAGUCCUUUUGGCGACUCUUUCCAUCCCUAUUACUCCUGAGCGAACUGAUAUUGCUCGACUUCUGGAUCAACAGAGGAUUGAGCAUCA	0.206 ratio
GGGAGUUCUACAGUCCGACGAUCAUAUUUCAUAUUGCAAAGAUGUUUACAAGUAUUUUAAUUUAAGUUCAGUGAACUUUUUUGUAGCUGGGUUAAAUCUUUUUAUUUUUAUAUGGCCUUAUGGCAAAGAACACUGUAUUAUUUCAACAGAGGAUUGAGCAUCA	1.09 ratio
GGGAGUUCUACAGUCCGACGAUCCGGAGCCCUCCUCUCCCACAGGCCCAAGAUAUAACCCACCAGUGCCUUUUGUCUUCCUGUCAGCUCUAAUCAAUCAUCCUGUCCUCUCACGCCCACACCAAGUGCCCCCACCCCUAAGGGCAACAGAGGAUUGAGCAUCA	0.791 ratio
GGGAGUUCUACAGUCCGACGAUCACCUCCCAGGCCUGGGACACCCCACCCCCGCUUUUUGGAAAGUUUUUGGCGUUUCUUUUCCUUCCCCAUACAAAGUGAUUACAGUUUCCCCCGCAAGUGGGGCUUGAAGGGCUUGACGGACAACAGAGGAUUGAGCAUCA	0.4 ratio
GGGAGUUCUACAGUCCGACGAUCUCUGGUCACACUCGUGUAUAUGGUGUGUGCUUUGUUGACACUUCACUGGGCAAGUUUUUCAUCGGCCAGUUUUCGGAUGACCGCCACUGUUCCAGAUUUAGGACGCUAGUGGCUCACUAUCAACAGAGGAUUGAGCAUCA	0.305 ratio
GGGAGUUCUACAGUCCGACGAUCACCUCCCCCUCCCGCCUCACCCCACCCCCGCUUUUUGAAAGUGUGUUGGCGUUUCUUUUCCUUCCCCAUACAAAGUGAUUACAGUUUCCCCCGCAAGGGUCUAUCGAUUCACCCUUCGGACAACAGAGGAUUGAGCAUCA	0.881 ratio
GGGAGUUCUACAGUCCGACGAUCACAGUUAUAUUGUUGAGGUUUGUAUUUAUAUAUUCUUGUAGUGUCUGCUUGCCUGUGUCUUUUAGUAAAAUAAAAUAAGCCUUUGAAAAUAUUUUAGCAUGGUAUUUAACAUUUUCUAAACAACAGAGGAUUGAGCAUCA	3.46 ratio
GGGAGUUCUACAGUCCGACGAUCCUUAAUGUUAAUAUUUUUAAAGGAAGCAAGCUAAAAUGUCUGCUUUUGGUACAACACGCAUUAAUAAAAGGUUAAGUUUUGUUUUCCACUGAAGUACUAUUUAACAUCUCAGAAAAAAACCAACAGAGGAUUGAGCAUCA	0.219 ratio
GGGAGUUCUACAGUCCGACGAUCAGAUUCCCCCUCCUGAGACCUCCUCCGAAGUUGGAGUCUCUUAUAGAUGCCUCAUCCCCUGUUAGCGUUUUAGUUUGGACCACCCAGCCUUGGACAAUUCCCGCCAAUGAAGCUGUUUGCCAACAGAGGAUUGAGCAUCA	3.46 ratio

Set 3
Target: CCNA1, cyclin fold, Cln2 fusion (human)
Method: yeast growth competition, sequencing
Matrix: yeast
Setting: weak parent motif
Relative to: not given
Direction: higher = stronger binding
Parent: BRCA2 docking peptide (human); PSIKRNLLNEFDR; partner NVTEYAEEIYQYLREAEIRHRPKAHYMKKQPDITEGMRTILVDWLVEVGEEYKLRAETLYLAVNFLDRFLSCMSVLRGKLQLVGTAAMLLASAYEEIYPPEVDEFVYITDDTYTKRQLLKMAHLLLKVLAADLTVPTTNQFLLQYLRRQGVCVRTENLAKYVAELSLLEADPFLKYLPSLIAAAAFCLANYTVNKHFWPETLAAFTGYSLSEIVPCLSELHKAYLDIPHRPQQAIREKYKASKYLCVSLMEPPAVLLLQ
Variant	normalised enrichment score
E10N	0.364
L8N	0.162
L7W	0.166
I3D	-0.0639
L7P	0.153
F11M	0.272
F11L	0.134
N9L	0.603
R5A L7A	0.158
L7R	0.558
D12R	0.379
N6Y	0.129
S2W	0.34
K4N	0.286
R5G	0.139
R5P	0.562
L7E	-0.0614

Set 4
Target: Transcriptional repressor CTCF (CTCF, Homo sapiens, UniProt P49711, residues 1-727, full length assumed)
Method: protein-binding microarray
Molecule type: double-stranded DNA, one strand shown
Matrix: in vitro
Tested at: not given
Setting: k-mer, scored over probes, only values ≥0.25
Direction: higher = stronger binding
Construct (chain): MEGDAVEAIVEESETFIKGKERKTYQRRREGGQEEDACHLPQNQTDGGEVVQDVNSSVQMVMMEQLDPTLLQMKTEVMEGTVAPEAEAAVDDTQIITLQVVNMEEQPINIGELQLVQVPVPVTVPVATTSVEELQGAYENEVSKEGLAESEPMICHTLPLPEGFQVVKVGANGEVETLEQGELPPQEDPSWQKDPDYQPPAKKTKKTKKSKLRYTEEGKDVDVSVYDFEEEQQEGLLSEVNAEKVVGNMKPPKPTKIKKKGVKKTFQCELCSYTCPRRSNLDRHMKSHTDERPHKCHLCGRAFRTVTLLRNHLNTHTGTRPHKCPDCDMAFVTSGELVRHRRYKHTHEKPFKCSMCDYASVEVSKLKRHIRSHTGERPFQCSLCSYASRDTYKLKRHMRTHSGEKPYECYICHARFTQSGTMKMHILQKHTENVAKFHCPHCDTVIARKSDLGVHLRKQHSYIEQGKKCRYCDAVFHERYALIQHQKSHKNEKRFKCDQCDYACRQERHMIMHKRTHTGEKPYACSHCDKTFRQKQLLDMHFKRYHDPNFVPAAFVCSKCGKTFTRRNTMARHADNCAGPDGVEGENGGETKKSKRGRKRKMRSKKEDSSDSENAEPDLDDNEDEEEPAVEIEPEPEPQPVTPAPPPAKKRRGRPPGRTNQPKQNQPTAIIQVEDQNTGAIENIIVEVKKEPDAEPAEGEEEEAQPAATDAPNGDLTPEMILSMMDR
Strand	E-score
ATAGATAA	0.31
CGCGCACA	0.295
ATGCGCCC	0.379
CATTATAA	0.34
CGCATCTA	0.28
GATCATTA	0.265
AATGTTAC	0.254
AGTACAAT	0.265
GGTTATAA	0.277
AACATAAT	0.369
GCGCGTAA	0.391
GTGGCGCA	0.478
ACATAATC	0.267
ACCCATAT	0.292
TGCGTAAA	0.267
AGTATAAT	0.299
AGGTTGTA	0.284
AATGTGAA	0.288

Set 5
Target: Interferon regulatory factor 5, full length, phosphomimetic (IRF5, Homo sapiens, UniProt Q13568-2, residues 1-514, S451D/S453D/S456D/S462D)
Method: protein-binding microarray
Molecule type: double-stranded DNA, one strand shown
Matrix: in vitro
Tested at: 940 nM top
Setting: 60-bp whole probe
Added: salmon DNA 0.4 mg/ml
Relative to: random background probes
Direction: higher = stronger binding
Constant ends, left off below: GCCTAGCAC … GTCTTGATTCGCTTGACGCTGCTG
Strand	fitted relative affinity
TTAGGAGTGGGTCTCGGTTAGTGCTAG	1.46 z-score
GACGGAATGCTTATCCTGACGTGCTAG	-0.684 z-score
TCACTTTTCACTTTCTTACTGTGCTAG	2.34 z-score
GACGGACTGGGGACCGGGGACGTGCTA	-0.298 z-score
TCATTTTTTTTCTTTAAACTGTGCTAG	1.66 z-score
TTAGGTATCCTCATCCTTTAGTGCTAG	0.208 z-score
TGGATGGTCCTGGTTTCATGGGTGCTA	0.139 z-score
TCATTTTTATTTATAAAACTGTGCTAG	-0.242 z-score
TCACCTCTCACGCATCTGACTGTGCTA	0.731 z-score
TCAGAACTCAACTGTCTGACTGTGCTA	-0.125 z-score

Set 6
Target: Histone acetyltransferase KAT6A, winged helix 2, GST fusion (KAT6A, Homo sapiens, UniProt Q92794, residues 85-181)
Method: protein binding microarray
Molecule type: double-stranded DNA, one strand shown
Matrix: in vitro
Tested at: not given
Setting: 8-mer, flanks averaged, mean of 2 arrays, mostly near background
Relative to: not given
Direction: higher = stronger binding
Residues (chain): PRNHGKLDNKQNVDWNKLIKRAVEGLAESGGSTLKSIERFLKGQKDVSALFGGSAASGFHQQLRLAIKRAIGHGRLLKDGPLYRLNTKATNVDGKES
Strand	E-score
CATATATA	0.0147
GAGTGACA	0.163
ACACTCGG	0.0701
ACAGTATC	-0.11
CGACGACA	-0.12
GACTTCTC	0.0365
AAGGTATC	0.0391
TTAACCAA	0.00176
CACGAGTC	-0.1
ACGTGTCT	-0.206
ACGGCTAC	0.0156
GTCTCCTA	-0.187
CAGTCGGC	0.0627
CATCGGCA	0.112
CATGAGCA	0.102
TGCTAGAA	0.156
ATGGGGGG	-0.0669
GTAGTAAC	-0.0704
TCAAGAGA	-0.124
AATACTTC	-0.0975
CAGGACAG	0.142
ATCAATTA	0.114
GAGATATA	-0.0025

For quick reference, copied from above (set 4):
Strand	E-score
CATTATAA	0.34
CGCATCTA	0.28
GATCATTA	0.265
AATGTTAC	0.254
AGTACAAT	0.265
GGTTATAA	0.277
AACATAAT	0.369
GCGCGTAA	0.391
GTGGCGCA	0.478
ACATAATC	0.267
